Measured values pooled from the literature.
Compare with care: the assays were run in different laboratories. ± marks the error that the study gave.

Compound | test | system | setting | plasma concentration
N=C(N)c1ccc(CNC(=O)[C@@H]2CCN2C(=O)[C@H](NCC(=O)O)C2CCCCC2)cc1 |  | Wistar rats male, plasma | intravenous, 0.01 mg/kg, 15 min, 10 min after TF | 19 ng/mL
Cc1cc(C)c2c(c1)[C@@H](N(Cc1cc(C(F)(F)F)cc(C(F)(F)F)c1)c1nnn(C)n1)CCCN2C[C@H]1CC[C@H](C(=O)O)CC1 |  | dyslipidemic patients, plasma | oral, dose not given, 4 to 6 weeks after last dose, patients above quantitation limit | < 3 ng/mL
CCC(=O)N1CCC(NC(=O)Nc2ccc(OC(F)(F)F)cc2)CC1 |  | Swiss Webster mouse, plasma | oral, dose not given, 7 h | > 8 nM
COc1cc2c(cc1OC)CN(CCc1ccc(NC(=O)c3cc(OC)c(OC)cc3NC(=O)c3cnc4ccccc4c3)cc1)CC2 |  | Wistar Unilever rat, plasma | intravenous, 15 mg/kg, 3 h | 1400 ± 296 ng/mL
CNC(=O)c1cc2c(Oc3ccc(NC(=O)C4(C(=O)Nc5ccc(F)cc5)CC4)cc3)ccnc2cc1OC | LC-MS/MS | mouse, Hs746T xenograft, plasma | oral, 30 mg/kg single dose, 4 h | 20000 nM
O=C(OC(C(F)(F)F)C(F)(F)F)N1CCN(Cc2ccc(C(F)(F)F)cc2N2CCCC2)CC1 |  | wild-type mouse, plasma | oral in chow, 350 mg/kg chow, 3 days, P21 | 170 ± 19 ng/mL
OC[C@H]1O[C@@H](c2ccc(Cl)c(Cc3ccc(O[C@H]4CCOC4)cc3)c2)[C@H](O)[C@@H](O)[C@@H]1O | HPLC-MS/MS | healthy Chinese volunteers, fasting | oral, 10 mg tablet, 2.75 h | 130 ± 18.5 ng/mL
CS(=O)(=O)n1cc2c(n1)CN([C@H]1CO[C@H](c3cc(F)ccc3F)[C@@H](N)C1)C2 |  | healthy Japanese men, fasted, plasma | oral, 50 mg single dose, 168 h | 23.6 nM
CCn1nc(C2CC2)cc1Nc1nc(C(=O)NCCCCCc2cccc3c2CN(C2CCC(=O)NC2=O)C3=O)nc2[nH]c3cc(-c4c(C)noc4C)c(OC)cc3c12 (stereo not drawn) |  | female SCID C.B-17 mouse, plasma | intravenous, 5 mg/kg single, 1 h | 422 ng/mL
C[C@H](Oc1ccc(-c2nc(-c3ccc4[nH]cnc4c3)no2)cc1C(F)(F)F)C(F)(F)F |  | cynomolgus monkey, aneurysm model, plasma | 0.1 mg/kg once daily, 2 h post-dose, 3 months dosing | 12 ± 2 nM
Cc1ccc([C@H]2C[C@@H]2COc2cc(NCc3nnc(C)s3)nc(C)n2)nc1 |  | rat (MK-801-induced hyperlocomotion), plasma | oral, 0.25 mg/kg, 2.5 h | 17 nM
CC(C)(O/N=C(\C(=O)N[C@H]1CN2CC(C(=O)NCCN3C(=O)c4cc(O)c(O)cc4C3=O)=C(C(=O)O)N2C1=O)c1nc(N)sc1Cl)C(=O)O |  | CD-1 mouse, plasma | subcutaneous, 50 mg/kg, 6 h | 1430 ng/mL

For quick reference, copied from above:
Compound | test | system | setting | plasma concentration
CCn1nc(C2CC2)cc1Nc1nc(C(=O)NCCCCCc2cccc3c2CN(C2CCC(=O)NC2=O)C3=O)nc2[nH]c3cc(-c4c(C)noc4C)c(OC)cc3c12 (stereo not drawn) |  | female SCID C.B-17 mouse, plasma | intravenous, 5 mg/kg single, 1 h | 422 ng/mL
